Results pooled from the literature.
Numbered parts are unrelated; each lists some results of a single study. Several values in a cell are separate wells, animals, samples, runs or records.
Sequence of UniProt P25098 (whole entry, looked up): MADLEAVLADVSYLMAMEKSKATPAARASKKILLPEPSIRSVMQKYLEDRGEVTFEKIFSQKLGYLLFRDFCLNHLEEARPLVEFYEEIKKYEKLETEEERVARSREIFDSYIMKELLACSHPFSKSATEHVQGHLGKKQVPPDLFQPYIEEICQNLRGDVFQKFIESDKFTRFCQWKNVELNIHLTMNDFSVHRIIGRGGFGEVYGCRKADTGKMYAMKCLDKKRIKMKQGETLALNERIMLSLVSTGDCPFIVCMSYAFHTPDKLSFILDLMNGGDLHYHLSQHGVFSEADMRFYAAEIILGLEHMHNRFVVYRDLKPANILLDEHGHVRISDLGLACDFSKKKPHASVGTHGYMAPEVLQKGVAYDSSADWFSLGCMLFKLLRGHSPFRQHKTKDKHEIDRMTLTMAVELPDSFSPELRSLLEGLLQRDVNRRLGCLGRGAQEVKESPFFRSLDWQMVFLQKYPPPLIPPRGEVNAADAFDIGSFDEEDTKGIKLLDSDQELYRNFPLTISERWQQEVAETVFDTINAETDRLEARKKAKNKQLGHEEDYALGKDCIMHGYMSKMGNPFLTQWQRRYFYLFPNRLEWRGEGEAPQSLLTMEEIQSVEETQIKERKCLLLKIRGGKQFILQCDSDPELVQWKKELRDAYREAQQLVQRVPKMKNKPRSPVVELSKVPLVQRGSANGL
Sequence of UniProt Q9Y6E0 (whole entry, looked up): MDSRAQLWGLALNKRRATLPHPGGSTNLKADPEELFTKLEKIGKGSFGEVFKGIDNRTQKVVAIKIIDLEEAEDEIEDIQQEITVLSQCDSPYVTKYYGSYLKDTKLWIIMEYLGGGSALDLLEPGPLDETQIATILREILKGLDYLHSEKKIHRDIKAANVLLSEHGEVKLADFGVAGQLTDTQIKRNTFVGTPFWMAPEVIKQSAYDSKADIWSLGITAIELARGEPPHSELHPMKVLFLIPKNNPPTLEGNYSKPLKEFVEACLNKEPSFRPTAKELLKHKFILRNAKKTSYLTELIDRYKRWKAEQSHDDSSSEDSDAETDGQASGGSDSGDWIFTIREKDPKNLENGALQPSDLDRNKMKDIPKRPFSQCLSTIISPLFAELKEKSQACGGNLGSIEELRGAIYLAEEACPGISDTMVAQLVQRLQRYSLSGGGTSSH
Sequence of UniProt Q8N5S9 (whole entry, looked up): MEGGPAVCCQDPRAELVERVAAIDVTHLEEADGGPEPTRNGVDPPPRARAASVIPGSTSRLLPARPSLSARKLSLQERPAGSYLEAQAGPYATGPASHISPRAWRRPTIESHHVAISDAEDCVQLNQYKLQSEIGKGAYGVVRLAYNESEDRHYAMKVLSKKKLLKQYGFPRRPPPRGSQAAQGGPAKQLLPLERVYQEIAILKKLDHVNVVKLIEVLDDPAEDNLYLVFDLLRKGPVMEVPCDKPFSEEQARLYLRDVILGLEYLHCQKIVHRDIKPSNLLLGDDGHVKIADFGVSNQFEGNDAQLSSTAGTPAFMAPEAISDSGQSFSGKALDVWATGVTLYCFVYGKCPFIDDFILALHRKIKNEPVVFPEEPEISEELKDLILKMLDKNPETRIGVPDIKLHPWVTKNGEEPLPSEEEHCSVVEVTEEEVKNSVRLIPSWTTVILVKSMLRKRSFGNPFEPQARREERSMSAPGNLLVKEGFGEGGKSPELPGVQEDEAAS
Sequence of UniProt O14936 (whole entry, looked up): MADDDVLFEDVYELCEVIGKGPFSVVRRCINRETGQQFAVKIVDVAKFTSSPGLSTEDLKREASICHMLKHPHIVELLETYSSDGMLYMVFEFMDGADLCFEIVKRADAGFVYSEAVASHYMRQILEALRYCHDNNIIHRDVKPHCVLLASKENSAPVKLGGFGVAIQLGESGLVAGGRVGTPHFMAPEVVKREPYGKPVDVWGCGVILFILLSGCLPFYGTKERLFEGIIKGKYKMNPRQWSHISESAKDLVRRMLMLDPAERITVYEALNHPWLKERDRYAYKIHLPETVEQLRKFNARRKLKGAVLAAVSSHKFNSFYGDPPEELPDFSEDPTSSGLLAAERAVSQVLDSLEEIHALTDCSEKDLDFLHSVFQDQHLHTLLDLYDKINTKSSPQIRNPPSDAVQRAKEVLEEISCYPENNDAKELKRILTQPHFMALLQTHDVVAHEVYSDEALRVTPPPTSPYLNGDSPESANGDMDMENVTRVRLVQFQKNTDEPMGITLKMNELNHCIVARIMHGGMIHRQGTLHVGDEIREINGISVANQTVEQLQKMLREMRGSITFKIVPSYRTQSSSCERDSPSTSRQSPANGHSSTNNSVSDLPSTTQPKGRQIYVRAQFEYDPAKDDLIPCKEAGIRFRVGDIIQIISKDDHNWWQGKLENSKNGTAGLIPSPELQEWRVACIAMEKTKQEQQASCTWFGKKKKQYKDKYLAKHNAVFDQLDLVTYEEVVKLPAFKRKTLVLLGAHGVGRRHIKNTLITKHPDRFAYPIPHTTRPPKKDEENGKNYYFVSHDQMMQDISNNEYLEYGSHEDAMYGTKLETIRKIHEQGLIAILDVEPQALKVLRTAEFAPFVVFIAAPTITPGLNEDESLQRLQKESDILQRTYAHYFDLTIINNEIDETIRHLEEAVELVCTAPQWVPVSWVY
Sequence of UniProt Q16832 (whole entry, looked up): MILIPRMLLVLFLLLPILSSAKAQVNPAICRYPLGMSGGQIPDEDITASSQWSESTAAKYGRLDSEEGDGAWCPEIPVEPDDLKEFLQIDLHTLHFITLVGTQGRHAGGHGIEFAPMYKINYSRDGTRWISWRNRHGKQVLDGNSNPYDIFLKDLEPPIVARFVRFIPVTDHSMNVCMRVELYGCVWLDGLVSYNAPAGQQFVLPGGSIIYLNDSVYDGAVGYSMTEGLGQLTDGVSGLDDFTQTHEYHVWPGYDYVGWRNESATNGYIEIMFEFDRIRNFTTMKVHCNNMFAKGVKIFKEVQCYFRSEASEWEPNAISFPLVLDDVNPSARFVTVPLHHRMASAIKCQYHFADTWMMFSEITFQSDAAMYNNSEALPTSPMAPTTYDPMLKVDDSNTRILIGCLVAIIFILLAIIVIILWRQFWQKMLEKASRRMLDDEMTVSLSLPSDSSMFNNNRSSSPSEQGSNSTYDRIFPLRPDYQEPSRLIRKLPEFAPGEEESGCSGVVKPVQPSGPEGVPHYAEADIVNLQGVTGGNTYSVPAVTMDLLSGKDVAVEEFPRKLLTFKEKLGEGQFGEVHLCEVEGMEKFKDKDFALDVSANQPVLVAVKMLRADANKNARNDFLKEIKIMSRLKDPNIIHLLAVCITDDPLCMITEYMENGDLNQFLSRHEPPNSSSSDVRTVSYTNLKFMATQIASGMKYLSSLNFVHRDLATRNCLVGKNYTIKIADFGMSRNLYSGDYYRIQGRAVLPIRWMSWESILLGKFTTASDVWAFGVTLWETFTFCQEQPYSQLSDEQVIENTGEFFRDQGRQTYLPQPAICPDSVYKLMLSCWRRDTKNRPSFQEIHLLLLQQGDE
Sequence of UniProt Q12851 (whole entry, looked up): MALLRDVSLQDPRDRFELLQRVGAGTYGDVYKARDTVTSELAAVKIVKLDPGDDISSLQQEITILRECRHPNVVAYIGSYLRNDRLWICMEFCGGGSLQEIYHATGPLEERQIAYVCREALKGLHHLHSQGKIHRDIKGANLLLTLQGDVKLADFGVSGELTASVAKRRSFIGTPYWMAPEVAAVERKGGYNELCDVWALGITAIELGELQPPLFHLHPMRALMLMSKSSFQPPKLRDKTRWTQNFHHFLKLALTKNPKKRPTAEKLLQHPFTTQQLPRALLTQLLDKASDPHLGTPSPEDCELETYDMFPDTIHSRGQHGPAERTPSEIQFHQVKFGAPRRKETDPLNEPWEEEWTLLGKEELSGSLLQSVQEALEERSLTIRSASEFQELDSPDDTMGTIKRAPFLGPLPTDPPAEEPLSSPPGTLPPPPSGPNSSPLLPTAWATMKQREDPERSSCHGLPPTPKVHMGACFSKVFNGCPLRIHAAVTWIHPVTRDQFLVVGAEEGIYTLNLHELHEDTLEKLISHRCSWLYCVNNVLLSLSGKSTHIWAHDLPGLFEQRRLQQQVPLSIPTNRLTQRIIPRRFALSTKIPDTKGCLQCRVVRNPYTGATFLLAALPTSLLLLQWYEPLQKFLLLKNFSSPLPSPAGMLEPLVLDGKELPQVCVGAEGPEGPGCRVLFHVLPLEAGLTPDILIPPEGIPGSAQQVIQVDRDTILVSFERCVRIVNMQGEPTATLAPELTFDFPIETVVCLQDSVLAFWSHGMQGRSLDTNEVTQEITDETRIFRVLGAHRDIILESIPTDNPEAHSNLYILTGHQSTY
Sequence of UniProt P51813 (whole entry, looked up): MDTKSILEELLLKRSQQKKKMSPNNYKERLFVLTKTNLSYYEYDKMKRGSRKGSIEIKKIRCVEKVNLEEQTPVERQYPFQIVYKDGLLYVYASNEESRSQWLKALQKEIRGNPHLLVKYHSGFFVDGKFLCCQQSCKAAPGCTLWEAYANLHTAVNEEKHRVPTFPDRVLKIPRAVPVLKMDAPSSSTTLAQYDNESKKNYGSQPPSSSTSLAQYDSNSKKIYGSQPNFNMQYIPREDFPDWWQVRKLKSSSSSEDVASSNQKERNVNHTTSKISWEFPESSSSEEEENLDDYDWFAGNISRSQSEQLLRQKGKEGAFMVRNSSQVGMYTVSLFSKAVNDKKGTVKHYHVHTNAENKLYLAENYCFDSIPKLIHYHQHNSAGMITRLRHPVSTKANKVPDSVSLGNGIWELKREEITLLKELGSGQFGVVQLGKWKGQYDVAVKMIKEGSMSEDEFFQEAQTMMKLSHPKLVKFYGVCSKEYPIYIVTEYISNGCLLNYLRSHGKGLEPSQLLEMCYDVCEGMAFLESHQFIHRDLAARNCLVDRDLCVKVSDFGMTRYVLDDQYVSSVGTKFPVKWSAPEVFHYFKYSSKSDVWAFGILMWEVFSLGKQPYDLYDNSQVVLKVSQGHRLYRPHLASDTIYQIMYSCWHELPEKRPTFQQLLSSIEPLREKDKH

Block 1 — observed: enzyme activity; tested at: 10 µM; relative to: untreated control
SMILES: Cc1sc(C(=O)NC2COC2)cc1-n1cc(NC(=O)Nc2c(F)cccc2Cl)cn1
target | remaining activity [%]
Microtubule-associated serine/threonine-protein kinase 3 (MAST3, Homo sapiens, UniProt O60307) | 95.2
Receptor-type tyrosine-protein kinase FLT3 (FLT3, Homo sapiens, UniProt P36888) | 68.4
Non-receptor tyrosine-protein kinase TNK1 (TNK1, Homo sapiens, UniProt Q13470) | 102
Serine/threonine-protein kinase 24 (STK24, Homo sapiens, UniProt Q9Y6E0) | 63.2
Serine/threonine-protein kinase WNK1 (WNK1, Homo sapiens, UniProt Q9H4A3) | 87.3
Cyclin-dependent kinase 3, with cyclin E2 (CDK3, Homo sapiens, UniProt Q00526) | 99.4
Calcium/calmodulin-dependent protein kinase kinase 1 (CAMKK1, Homo sapiens, UniProt Q8N5S9) | 116
Macrophage colony-stimulating factor 1 receptor (CSF1R, Homo sapiens, UniProt P07333) | 101
TRAF2 and NCK-interacting protein kinase (TNIK, Homo sapiens, UniProt Q9UKE5) | 93.9
Aurora kinase C (AURKC, Homo sapiens, UniProt Q9UQB9) | 101
Tyrosine-protein kinase SYK (SYK, Homo sapiens, UniProt P43405) | 85.5
Serine/threonine-protein kinase D1 (PRKD1, Homo sapiens, UniProt Q15139) | 93.2
Mitogen-activated protein kinase kinase kinase kinase 2 (MAP4K2, Homo sapiens, UniProt Q12851) | 88.5
Tyrosine-protein kinase ITK/TSK (ITK, Homo sapiens, UniProt Q08881) | 91.4
Beta-adrenergic receptor kinase 1 (GRK2, Homo sapiens, UniProt P25098) | 106

Block 2 — species: C57BL/6 CES1-/- mice, MC-38 tumour; dose: dose not given; together with: anti-PD-1; relative to: initial
Structure (SMILES): CC(=O)N[C@@H](Cc1c[nH]c2ccccc12)C(=O)N[C@@H](CCC(=O)C=[N+]=[N-])C(=O)OC(C)C
time | body weight
day 24 after inoculation | 93.5% and 97.2% and 96.5% and 99.2% and 97.4% and 96.8% and 100%
day 22 after inoculation | 100% and 97.7% and 93.5% and 94.9% and 95.9% and 95.7% and 102%
day 28 after inoculation | 97.3% and 96.1% and 97.6% and 95.6% and 91.8% and 92.5% and 95.4%
day 17 after inoculation | 100% and 97.5% and 101% and 99.3% and 99.5% and 97.3%
day 45 after inoculation | 94.6% and 94.3% and 103% and 97.9% and 91.8% and 99.5%
day 32 after inoculation | 98.4% and 96.8% and 93.7% and 100% and 97.4% and 92.9% and 97.3%
day 19 after inoculation | 98.7% and 99.3% and 93.9% and 98.8% and 96.3% and 95.9% and 98.2%

Block 3 — organism: Sarcocystis neurona; observed: parasite growth; tested at: 10 µM; time: 96 h; setting: first screen; relative to: untreated
SMILES | log2 fold change
O=C(C1CCCCC1)N1CC(=O)N2CCc3ccccc3C2C1 (centres unmarked) | -0.45
O=C(O)Cc1ccccc1Nc1c(Cl)cccc1Cl | 0.09
CCN1CCN(c2cc3c(cc2F)c(=O)c(C(=O)O)cn3C2CC2)CC1 | -0.26
O=C1CCC(N2C(=O)c3ccccc3C2=O)C(=O)N1 (centres unmarked) | 0.22
O=C(O)COCCN1CCN([C@H](c2ccccc2)c2ccc(Cl)cc2)CC1 | 0.16
Cc1onc(-c2c(Cl)cccc2Cl)c1C(=O)N[C@@H]1C(=O)N2[C@@H]1SC(C)(C)[C@@H]2C(=O)O | 0.27
Cn1cc[nH]c1=S | 0.0248
COc1ccccc1N1CCN(CC(O)COc2cccc3ccccc23)CC1 (centres unmarked) | -0.19
c1ccc2c(CC3=NCCN3)cccc2c1 | 0.14
N[C@@H](C(=O)N[C@@H]1C(=O)N2C(C(=O)O)=C(CSc3c[nH]nn3)CS[C@H]12)c1ccc(O)cc1 | -0.0475
CN(C)C(=O)C(CCN1CCC(O)(c2ccc(Cl)cc2)CC1)(c1ccccc1)c1ccccc1 | -0.43
CO[C@H]1/C=C/O[C@@]2(C)Oc3c(C)c(O)c4c(O)c(c(/C=N/N5CCN(C)CC5)c(O)c4c3C2=O)NC(=O)/C(C)=C\C=C\[C@H](C)[C@H](O)[C@@H](C)[C@@H](O)[C@@H](C)[C@H](OC(C)=O)[C@@H]1C | 0.44

Block 4 — observed: cell-free assay; method: competition with immobilised ligand; tested at: 0.1 µM
SMILES: O=C(NCCCC1CCCCC1)c1ccc(CNC(=O)c2cnn(-c3ccccc3)c2C(F)(F)F)cc1
target | remaining binding [%]
Peripheral plasma membrane protein CASK (CASK, Homo sapiens, UniProt O14936) | 100
Cytoplasmic tyrosine-protein kinase BMX (BMX, Homo sapiens, UniProt P51813) | 75
Serine/threonine-protein kinase 24 (STK24, Homo sapiens, UniProt Q9Y6E0) | 100
Mitogen-activated protein kinase 6 (MAPK6, Homo sapiens, UniProt Q16659) | 100
Beta-adrenergic receptor kinase 1 (GRK2, Homo sapiens, UniProt P25098) | 100
Calcium/calmodulin-dependent protein kinase type II subunit delta (CAMK2D, Homo sapiens, UniProt Q13557) | 100
Rhodopsin kinase GRK1 (GRK1, Homo sapiens, UniProt Q15835) | 94
Calcium/calmodulin-dependent protein kinase kinase 1 (CAMKK1, Homo sapiens, UniProt Q8N5S9) | 100
Myosin-IIIa (MYO3A, Homo sapiens, UniProt Q8NEV4) | 98
Receptor-type tyrosine-protein kinase FLT3 (FLT3, Homo sapiens, UniProt P36888, D835V) | 88
Serine/threonine-protein kinase ICK (CILK1, Homo sapiens, UniProt Q9UPZ9) | 79
Casein kinase I isoform delta (CSNK1D, Homo sapiens, UniProt P48730) | 100
Serine/threonine-protein kinase ULK2 (ULK2, Homo sapiens, UniProt Q8IYT8) | 100
Vascular endothelial growth factor receptor 3 (FLT4, Homo sapiens, UniProt P35916) | 100
Discoidin domain-containing receptor 2 (DDR2, Homo sapiens, UniProt Q16832) | 100
G protein-coupled receptor kinase 3 (GRK3, Homo sapiens, UniProt P35626) | 100
Receptor-type tyrosine-protein kinase FLT3 (FLT3, Homo sapiens, UniProt P36888, F691L/ITD) | 100
Tyrosine-protein kinase Srms (SRMS, Homo sapiens, UniProt Q9H3Y6) | 93
Protein kinase C iota type (PRKCI, Homo sapiens, UniProt P41743) | 100

Excerpt of the above (block 4):
target | remaining binding [%]
Receptor-type tyrosine-protein kinase FLT3 (FLT3, Homo sapiens, UniProt P36888, D835V) | 88
Serine/threonine-protein kinase ICK (CILK1, Homo sapiens, UniProt Q9UPZ9) | 79
Casein kinase I isoform delta (CSNK1D, Homo sapiens, UniProt P48730) | 100
Serine/threonine-protein kinase ULK2 (ULK2, Homo sapiens, UniProt Q8IYT8) | 100
Vascular endothelial growth factor receptor 3 (FLT4, Homo sapiens, UniProt P35916) | 100
Discoidin domain-containing receptor 2 (DDR2, Homo sapiens, UniProt Q16832) | 100
G protein-coupled receptor kinase 3 (GRK3, Homo sapiens, UniProt P35626) | 100
